Published values pooled from the literature.
Protocols differ between the studies behind these lines. Several values in a cell are separate wells, animals, samples, runs or records. Numbers after ± are the reported error.

For `C=CCn1c(=O)c2cnc(Nc3ccc(N4CCN(C)CC4)cc3)nc2n1-c1ccc2c(n1)[C@@](O)(CC)CC2`, “cleaved caspase-3 level” read “increased” (A-427; capillary western blot; 0.1, 0.3, 1 µM, 16 h).
The activity score of `Clc1ccc(C(c2ccccc2Cl)C(Cl)Cl)cc1` (centres unmarked) is reported as 15.7 (human iPSC-derived cardiomyocytes; MyBP-C/MYH ratio, plate-normalised SD score; concentration not given, primary screen; direction not given).
`Cn1c(Nc2nc3ccc(C(F)(F)F)cc3s2)nc2cc(C(=O)NCCOCCO)ccc21` gave a fold change of 1.59 (SH-SY5Y; RNA-seq, measured: RFTN1 mRNA; 5 µM, 5 h; reference: untreated cells).
`COc1cc2ncnc(Nc3ccc(Oc4ccccc4)c(C)c3C)c2cc1OC` gave a viability of 92.2% (MeWo; cell growth, resazurin; 1 µM, 72 h, with: 0 nM trametinib; reference: DMSO).
With `C[C@@H]1CN(c2c(F)c(F)c3c(=O)c(C(=O)O)cn(C4CC4)c3c2F)C[C@H](C)N1` the activity score was 4.1 (human iPSC-derived cardiomyocytes; MyBP-C/MYH ratio, plate-normalised SD score; concentration not given, primary screen; direction not given).
The inhibition of `CCOC(=O)N1CCC(CN(Cc2ccc(Cl)cc2)Cc2ccc([N+](=O)[O-])s2)C1` (centres unmarked) is reported as 16% (knock-down, REV-ERBα/β, HepG2; transcription, qPCR, measured: BMAL1 mRNA; concentration not given).
`Cn1cc(Nc2nccc(-c3ccc4c(c3)CN(C3COC3)CC[C@H]4NC(=O)c3cn(C(C)(C)C)nn3)n2)cn1`: “pathway activation z-score” 2.98 (mouse splenic B cells; measured: Sphingosine-1-phosphate signalling; 30 mg/kg, IgD-activated in vivo; reference: vehicle, direction not given).
`N[C@@H](Cc1cc(I)c(Oc2cc(I)c(O)c(I)c2)c(I)c1)C(=O)O` has an activity score of -3.2 (human iPSC-derived cardiomyocytes; MyBP-C/MYH ratio, plate-normalised SD score; concentration not given, primary screen; direction not given).
`CCCCc1nc(Cl)c(CO)n1Cc1ccc(-c2ccccc2-c2nn[nH]n2)cc1` — result for “log2 fold change”: -1.98 (human PBMC; RNA-seq, measured: NFXL1 mRNA; 10 µg/mL, 24 h; reference: untreated control).
With `O=C(CCCSc1nc2ccccc2c(=O)[nH]1)Nc1nc2ccccc2[nH]1` the inhibition was 81 ± 3% (cells, COS-1, expressing proMMP-9; cell migration, 2D collagen dot migration; 50 µM, 18 h).
`CC1=C(CC(=O)O)c2cc(F)ccc2/C1=C\c1ccc([S+](C)[O-])cc1` (centres unmarked) has an activity score of 3 (human iPSC-derived cardiomyocytes; MyBP-C/MYH ratio, plate-normalised SD score; concentration not given, primary screen; direction not given).
The GI50 of `O=C(/C=C/C=C/C=C/C1CCCCC1)NC1=C[C@@](O)(/C=C/C=C/C=C/C(=O)NC2=C(O)CCC2=O)[C@@H]2O[C@@H]2C1=O` is reported as 25200 nM (mfe319; cell growth, inhibitor, CellTiter-Glo luminescence; 78 h; reference: day 0 cell count).
`C=CC(=O)N1[C@@H](c2ccc3c(c2)OCO3)c2[nH]c3ccccc3c2C[C@H]1C(=O)NC` has a neuron degeneration of 71.5% and 77.6% (rat DRG neurons; 0.1235 µM, 48 h, with: vincristine 40 nM).
Under “phospho-Ser73 c-Jun to total ratio”, `CSc1cc(Oc2ccnc3[nH]c(=O)cnc23)ccc1NC(=O)Nc1cc(C(C)(C)C)nn1-c1ccccc1` is recorded as 1.09 (patient-derived B cell clone line; reverse phase protein array; human; 1 µM, 4 h; reference: DMSO).
`O=[N+]([O-])c1ccc(-c2ccc(/C=N/Nc3nc(N4CCCCC4)nc(N4CCCCC4)n3)o2)cc1` has an efficacy of 28% (C127 LDR GFP reporter cells; silenced GFP reporter induction, activator, high-content imaging; retest, two-run mean).
For `CN(Cc1cnc2nc(N)nc(N)c2n1)c1ccc(C(=O)N[C@@H](CCC(=O)O)C(=O)O)cc1`, the uptake was 18.3% (cells transfected with L242C mutant; 0.5 µM, 2 min, pH 5.5, 37 °C).
With `CN(C)CCOc1cc(NC(=O)c2cc(Cl)cc(C(=O)Nc3cc(OCCN(C)C)c4ccccc4n3)n2)nc2ccccc12` the selectivity ratio was 1.8 (U2OS; cell viability, CellTiter-Glo; 72 h; reference: IC50 U2OS over WI-38).
For `CCn1cc(-c2cc(Cn3ccoc3=N)cc3c2CCN([C@@H](C)c2cc(OC)ccn2)C3=O)c(C(F)(F)F)n1`, the EC50 was 29.5 nM (PECAPJ15; cell growth; 120 h).
Under “relative cell number”, `CCCCCCOC(=O)[C@]1(O)C[C@@H]2O[C@@]1(C)n1c3ccccc3c3c4c(c5c6ccccc6n2c5c31)C(=O)NC4` is recorded as 130% (SK-OV-3; ATP; 2D monolayer culture; 0.01 µM, 4 days; reference: untreated).
`C[C@H](NC(=O)C(=O)Nc1ccccc1C(C)(C)C)C(=O)N[C@@H](CC(=O)O)C(=O)COc1c(F)c(F)cc(F)c1F` has a cell lysis of 39.4% and 42.3% (THP-1 cells, LPS-primed; pyroptosis, LDH release; 25 µM, LPS 1 µg/mL, 4 h, with: nigericin 5 µM, 2 h).
For `CCOn1c(=O)c[n+]([O-])c2ccccc21`, the maximum efficacy was 14% (C127 LDR GFP reporter cells; silenced GFP reporter induction, activator, high-content imaging; independent samples, two-run mean).
`Cc1cc(OCc2nnc(SC3CCCC3)n2-c2cccnc2)ccc1-c1ccc(S(C)(=O)=O)cc1` gave an activity score of 4.2 (human iPSC-derived cardiomyocytes; MyBP-C/MYH ratio, plate-normalised SD score; concentration not given, primary screen; direction not given).
`Cn1cc(-c2ccc(-c3cncc(Cl)c3N3CCC4(CCNC4=O)CC3)cc2)cn1`: “fold change in expression” -4.85 (COLO 205; microarray, measured: PLA2G2A; concentration not given, 2 h, gene set PLA2(hGIIA); reference: untreated cells).
Under “log2 fold change”, `C=CC1=C(C)c2cc3[n-]c(cc4nc(cc5[n-]c(cc1n2)c(C)c5C=C)C(C)=C4CCC(=O)O)c(CCC(=O)O)c3C.[Zn+2]` is recorded as 1.96 (SH-SY5Y; RNA-seq, measured: NEAT1; 5 µM, 5 h; reference: untreated).
For `CC[C@H](C)N(CC(=O)N(CC(=O)N(CC(=O)N(CC(=O)N(CC(=O)N(CC(=O)N(CC(N)=O)[C@@H](C)c1ccccc1)[C@@H](C)c1ccccc1)[C@@H](C)CC)[C@@H](C)c1ccccc1)[C@@H](C)c1ccccc1)[C@@H](C)CC)C(=O)CNCCCCN`, cytokine release read “decreased” (THP-1 macrophages; ELISA, measured: IL-1β, IL-6, IL-8; 2, 10, 50 µM, 72 h, with: LPS 2 ng/mL).
With `Cc1c(C(=O)O)ccc2c3n(nc12)[C@@H]1[C@H](C3)N(CC2CC2)[C@@]2(C(=O)Nc3cc(Cl)ccc32)[C@H]1c1cccc(Cl)c1F` the GI50 was 43 nM (RKO (MDM2 non-amplified); cell growth, alamarBlue; 120 h).
With `CN[C@@H]1[C@@H](O)[C@@H](O[C@@H]2[C@@H](O)[C@H](O[C@H]3OC(CN)=CC[C@H]3N)[C@@H](N)C[C@H]2N)OC[C@]1(C)O` the activity score was 3.3 (human iPSC-derived cardiomyocytes; MyBP-C/MYH ratio, plate-normalised SD score; concentration not given, primary screen; direction not given).
`COc1ccnc(CSC(N)=Nc2ccccc2OC)c1.Cl` gave an efficacy of 130% (C127 LDR GFP reporter cells; silenced GFP reporter induction, activator, high-content imaging; retest, two-run mean).
For `CCn1cc(-c2cc(Cn3ccnc3)cc3c2CCN([C@H](c2cc(OC)ccn2)C2CC2)C3=O)c(C(F)(F)F)n1`, the EC50 was > 30000 nM (NCI-H838; cell growth, inhibitor; 120 h).
With `Fc1cccc(F)c1-c1cnc(Cl)n1-c1ccc(OC(F)(F)F)cc1` the fold increase was 2.15 (QBI293; ELISA, measured: acetylated alpha-tubulin; 10 µM; reference: untreated).
For `C[C@H](Nc1ccc2c(c1)OCCn1cc(N3C(=O)OC[C@H]3C(F)F)nc1-2)C(N)=O`, “Hill coefficient GR curve” read 0.0001 (BT-483; cell growth, CellTiter-Glo; 120 h).
With `Cc1cc(=O)[nH]n1-c1nc(-c2ccc(Cl)cc2)c2c(NC(=O)c3ccccc3)nnc-2[nH]1` the cell growth was 91.8% (M14; SRB; 10 µM, NCI60 single-dose screen; reference: untreated).
`COc1cnc2cccc(N3CCc4c(cc(Cn5ccnc5C)cc4-c4cn(C)nc4C(F)(F)F)C3=O)c2c1` has an EC50 of 57.9 nM (SNU1076; cell growth; 120 h).
The activity score of `O=C(N/N=C/c1ccc([N+](=O)[O-])o1)c1ccc(O)cc1` is reported as 3.2 (human iPSC-derived cardiomyocytes; MyBP-C/MYH ratio, plate-normalised SD score; concentration not given, primary screen; direction not given).
For `Cc1nn(-c2nc3c(F)cc(F)cc3s2)c(O)c1C(c1ccc(C(F)(F)F)cc1)c1c(C)nn(-c2nc3c(F)cc(F)cc3s2)c1O`, “phospho-TBK1 to TBK1 ratio” read 0.659 and 0.515 and 0.415 (RAW-ISG; western blot; 20 µM, with: HT-DNA; reference: DMSO).
With `CC(C)(C)CC(C)(C)c1ccc(O)c(Cc2ccc(Cl)cc2Cl)c1` the activity score was 12.9 (human iPSC-derived cardiomyocytes; MyBP-C/MYH ratio, plate-normalised SD score; concentration not given, primary screen; direction not given).
The maximum efficacy of `Oc1ccc(Br)cc1C=Nc1ccc2c3c(cccc13)CC2` is reported as 9% (C127 LDR GFP reporter cells; silenced GFP reporter induction, activator, high-content imaging; independent samples, two-run mean).
`Nc1cccc2c1C(=O)N(C1CCC(=O)NC1=O)C2=O` (centres unmarked) — result for “surface marker level”: 397% (RPMI-8226; flow cytometry, measured: CD30; concentration not given; reference: comparator compound alone).
